# Results collected from several papers.
# Parts stem from different laboratories: compare values within a part only.
# Chain of UniProt Q9UIK4 (whole entry, looked up): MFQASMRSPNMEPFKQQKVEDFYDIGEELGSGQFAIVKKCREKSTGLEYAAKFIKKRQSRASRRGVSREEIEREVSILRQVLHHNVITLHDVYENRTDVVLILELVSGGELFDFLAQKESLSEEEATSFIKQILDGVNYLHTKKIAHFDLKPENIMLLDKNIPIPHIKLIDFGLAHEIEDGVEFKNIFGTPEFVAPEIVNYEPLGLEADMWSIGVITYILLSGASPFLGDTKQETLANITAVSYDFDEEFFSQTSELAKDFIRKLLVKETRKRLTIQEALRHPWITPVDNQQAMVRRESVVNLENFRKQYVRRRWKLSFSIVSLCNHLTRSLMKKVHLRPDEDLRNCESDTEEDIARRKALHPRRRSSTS
# Chain of UniProt Q14164 (whole entry, looked up): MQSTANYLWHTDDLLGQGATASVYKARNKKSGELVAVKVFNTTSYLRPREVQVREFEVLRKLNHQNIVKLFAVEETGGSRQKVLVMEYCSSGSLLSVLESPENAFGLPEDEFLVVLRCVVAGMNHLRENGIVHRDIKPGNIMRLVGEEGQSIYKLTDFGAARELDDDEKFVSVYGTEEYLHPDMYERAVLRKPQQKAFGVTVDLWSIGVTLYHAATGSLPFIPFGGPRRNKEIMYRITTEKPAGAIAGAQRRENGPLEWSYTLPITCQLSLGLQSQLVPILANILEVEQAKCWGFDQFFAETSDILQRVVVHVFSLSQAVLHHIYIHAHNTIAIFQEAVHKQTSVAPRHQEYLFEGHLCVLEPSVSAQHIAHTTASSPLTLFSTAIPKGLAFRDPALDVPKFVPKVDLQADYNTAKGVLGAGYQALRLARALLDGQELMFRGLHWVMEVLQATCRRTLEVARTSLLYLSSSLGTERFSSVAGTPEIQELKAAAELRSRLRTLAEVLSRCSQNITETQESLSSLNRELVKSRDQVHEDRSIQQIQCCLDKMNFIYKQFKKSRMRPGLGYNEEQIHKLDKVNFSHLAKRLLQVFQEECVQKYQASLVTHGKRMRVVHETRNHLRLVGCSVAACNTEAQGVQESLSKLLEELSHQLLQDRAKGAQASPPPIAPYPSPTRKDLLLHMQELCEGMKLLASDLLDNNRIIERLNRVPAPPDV
# Chain of UniProt O95747 (whole entry, looked up): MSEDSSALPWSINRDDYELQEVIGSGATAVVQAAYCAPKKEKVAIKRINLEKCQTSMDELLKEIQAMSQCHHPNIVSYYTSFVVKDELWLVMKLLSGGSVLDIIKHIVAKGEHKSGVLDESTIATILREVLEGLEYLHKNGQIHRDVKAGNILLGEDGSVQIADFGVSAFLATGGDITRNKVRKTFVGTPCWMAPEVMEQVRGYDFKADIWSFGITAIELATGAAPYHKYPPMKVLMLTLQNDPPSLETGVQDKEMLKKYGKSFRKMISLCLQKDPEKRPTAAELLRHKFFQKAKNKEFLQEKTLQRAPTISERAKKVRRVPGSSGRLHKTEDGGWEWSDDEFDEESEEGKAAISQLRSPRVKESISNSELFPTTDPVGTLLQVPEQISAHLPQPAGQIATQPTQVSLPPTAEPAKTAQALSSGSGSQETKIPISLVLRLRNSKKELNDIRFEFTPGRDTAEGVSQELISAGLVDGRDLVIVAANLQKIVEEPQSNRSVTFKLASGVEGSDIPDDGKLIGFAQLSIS
# Chain of UniProt Q00535 (whole entry, looked up): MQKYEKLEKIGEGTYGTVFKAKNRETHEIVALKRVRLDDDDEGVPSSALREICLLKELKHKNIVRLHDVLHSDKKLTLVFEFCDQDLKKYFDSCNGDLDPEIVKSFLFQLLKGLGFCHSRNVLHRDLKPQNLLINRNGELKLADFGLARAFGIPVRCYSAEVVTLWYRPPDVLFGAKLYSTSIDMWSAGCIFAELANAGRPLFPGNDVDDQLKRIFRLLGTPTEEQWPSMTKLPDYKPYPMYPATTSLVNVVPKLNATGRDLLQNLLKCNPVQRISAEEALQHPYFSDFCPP
# Chain of UniProt P00519 (whole entry, unmodified, looked up): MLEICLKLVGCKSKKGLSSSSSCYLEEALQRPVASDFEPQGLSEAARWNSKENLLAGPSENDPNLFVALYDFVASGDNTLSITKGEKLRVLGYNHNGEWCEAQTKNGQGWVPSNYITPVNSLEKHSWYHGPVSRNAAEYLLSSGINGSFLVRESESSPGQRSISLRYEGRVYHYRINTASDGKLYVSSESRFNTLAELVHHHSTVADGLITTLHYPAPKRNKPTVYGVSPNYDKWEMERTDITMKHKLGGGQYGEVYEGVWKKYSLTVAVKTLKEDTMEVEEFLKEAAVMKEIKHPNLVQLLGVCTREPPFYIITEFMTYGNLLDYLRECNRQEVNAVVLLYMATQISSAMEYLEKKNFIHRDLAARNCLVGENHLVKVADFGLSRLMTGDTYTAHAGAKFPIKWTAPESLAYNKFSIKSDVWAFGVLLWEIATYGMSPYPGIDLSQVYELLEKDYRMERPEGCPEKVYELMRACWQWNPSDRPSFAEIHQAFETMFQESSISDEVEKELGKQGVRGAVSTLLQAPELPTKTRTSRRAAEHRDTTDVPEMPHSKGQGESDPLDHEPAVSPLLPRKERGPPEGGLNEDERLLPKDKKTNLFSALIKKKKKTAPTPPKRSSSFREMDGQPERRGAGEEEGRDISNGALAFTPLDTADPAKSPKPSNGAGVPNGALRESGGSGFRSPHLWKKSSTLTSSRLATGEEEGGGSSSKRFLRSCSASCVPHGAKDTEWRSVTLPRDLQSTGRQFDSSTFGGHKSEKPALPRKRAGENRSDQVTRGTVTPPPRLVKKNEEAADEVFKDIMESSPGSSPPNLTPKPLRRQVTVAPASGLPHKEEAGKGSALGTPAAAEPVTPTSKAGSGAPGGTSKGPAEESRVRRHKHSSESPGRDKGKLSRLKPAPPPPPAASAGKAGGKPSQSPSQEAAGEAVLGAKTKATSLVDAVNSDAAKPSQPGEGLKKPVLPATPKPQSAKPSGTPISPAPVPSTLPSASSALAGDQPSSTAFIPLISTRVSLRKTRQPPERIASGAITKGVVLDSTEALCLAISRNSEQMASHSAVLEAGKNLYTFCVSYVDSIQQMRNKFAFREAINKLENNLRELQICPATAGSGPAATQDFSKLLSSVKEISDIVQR
# Chain of UniProt P51955 (whole entry, looked up): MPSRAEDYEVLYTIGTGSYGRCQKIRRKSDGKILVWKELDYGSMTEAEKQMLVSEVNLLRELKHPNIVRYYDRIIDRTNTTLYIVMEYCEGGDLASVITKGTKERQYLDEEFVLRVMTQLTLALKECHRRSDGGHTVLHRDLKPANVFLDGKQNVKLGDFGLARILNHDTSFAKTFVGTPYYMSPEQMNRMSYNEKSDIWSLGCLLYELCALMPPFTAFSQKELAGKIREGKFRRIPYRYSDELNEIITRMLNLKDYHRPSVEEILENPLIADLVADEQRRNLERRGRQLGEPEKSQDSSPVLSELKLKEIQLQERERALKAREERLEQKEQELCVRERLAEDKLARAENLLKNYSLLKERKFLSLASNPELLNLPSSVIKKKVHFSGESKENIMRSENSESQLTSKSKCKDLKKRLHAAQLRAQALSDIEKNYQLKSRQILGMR
# Chain of UniProt Q8IYT8 (whole entry, looked up): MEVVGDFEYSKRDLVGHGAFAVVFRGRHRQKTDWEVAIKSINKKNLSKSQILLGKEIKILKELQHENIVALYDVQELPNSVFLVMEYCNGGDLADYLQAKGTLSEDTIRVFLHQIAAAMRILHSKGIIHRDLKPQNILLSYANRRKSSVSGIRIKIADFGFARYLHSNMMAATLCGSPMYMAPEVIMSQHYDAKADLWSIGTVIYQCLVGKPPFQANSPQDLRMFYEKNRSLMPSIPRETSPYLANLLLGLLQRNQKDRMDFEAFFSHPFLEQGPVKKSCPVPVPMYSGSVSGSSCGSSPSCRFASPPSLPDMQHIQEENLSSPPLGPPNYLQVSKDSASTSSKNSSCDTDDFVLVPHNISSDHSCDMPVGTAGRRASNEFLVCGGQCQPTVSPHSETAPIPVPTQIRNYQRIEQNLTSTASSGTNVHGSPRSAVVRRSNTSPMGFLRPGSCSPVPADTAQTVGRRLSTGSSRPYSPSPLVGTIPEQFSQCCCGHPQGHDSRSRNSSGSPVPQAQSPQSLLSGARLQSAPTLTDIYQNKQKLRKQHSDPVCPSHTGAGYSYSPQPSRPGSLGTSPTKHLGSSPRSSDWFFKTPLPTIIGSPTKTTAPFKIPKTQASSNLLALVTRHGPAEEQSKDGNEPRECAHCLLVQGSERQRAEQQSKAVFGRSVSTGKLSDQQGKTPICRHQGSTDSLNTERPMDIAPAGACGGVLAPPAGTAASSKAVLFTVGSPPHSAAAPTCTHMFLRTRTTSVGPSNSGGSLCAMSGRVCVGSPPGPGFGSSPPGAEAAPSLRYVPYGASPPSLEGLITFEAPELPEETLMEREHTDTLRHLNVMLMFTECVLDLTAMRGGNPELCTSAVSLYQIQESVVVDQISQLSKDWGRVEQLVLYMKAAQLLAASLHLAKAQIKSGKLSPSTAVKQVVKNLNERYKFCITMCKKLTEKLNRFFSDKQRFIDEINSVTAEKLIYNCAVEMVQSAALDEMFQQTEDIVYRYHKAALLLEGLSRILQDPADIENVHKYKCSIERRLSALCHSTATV
# Chain of UniProt P42685 (whole entry, looked up): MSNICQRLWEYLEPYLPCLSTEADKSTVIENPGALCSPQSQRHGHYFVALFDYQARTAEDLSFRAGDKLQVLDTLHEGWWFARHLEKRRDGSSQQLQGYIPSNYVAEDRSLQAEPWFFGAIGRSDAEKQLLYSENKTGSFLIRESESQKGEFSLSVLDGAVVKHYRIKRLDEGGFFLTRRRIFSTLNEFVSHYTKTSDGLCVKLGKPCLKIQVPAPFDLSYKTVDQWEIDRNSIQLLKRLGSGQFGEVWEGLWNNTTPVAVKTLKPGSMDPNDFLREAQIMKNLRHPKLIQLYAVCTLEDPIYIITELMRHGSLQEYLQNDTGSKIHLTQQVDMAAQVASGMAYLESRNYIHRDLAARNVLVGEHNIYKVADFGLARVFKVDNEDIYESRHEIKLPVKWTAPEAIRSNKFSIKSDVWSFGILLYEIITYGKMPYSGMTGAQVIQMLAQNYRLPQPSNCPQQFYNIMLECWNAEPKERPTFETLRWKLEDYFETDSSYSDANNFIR

# Set 1 — method: phase 2a trial
# SMILES: CC(C)n1cnc(-c2ccc(F)cc2)c1-c1ncc(C(=O)Nc2ccc(N3CCN(C)CC3)cc2)[nH]1
host,route,dose,notes,patients with TEAE [%]
patients with idiopathic pulmonary fibrosis,,60 mg once daily,"nervous system disorders SOC, grade 3",0
idiopathic pulmonary fibrosis patients,oral,dose not given,"CK-MB increased, grade 2, all arms",0
idiopathic pulmonary fibrosis patients,oral,30 mg once daily,"disc protrusion, grade 1",0
idiopathic pulmonary fibrosis patients,oral,60 mg once daily,"urine red cells, grade 3",0
idiopathic pulmonary fibrosis patients,oral,30 mg once daily,"GLDH increased, grade 3",0
patients with idiopathic pulmonary fibrosis,,60 mg once daily,"free thyroxine decreased, grade 2",0
patients with idiopathic pulmonary fibrosis,,60 mg once daily,"renal and urinary disorders SOC, grade 3",0
idiopathic pulmonary fibrosis patients,oral,60 mg once daily,"disc protrusion, grade 2",0
idiopathic pulmonary fibrosis patients,oral,30 mg once daily,"CK-MB increased, grade 5",0
idiopathic pulmonary fibrosis patients,oral,60 mg once daily,"blood/lymphatic disorders, grade 1",3
idiopathic pulmonary fibrosis patients,oral,60 mg once daily,"urine red cells, grade 4",0
patients with idiopathic pulmonary fibrosis,,30 mg once daily,"renal and urinary disorders SOC, grade 4",0
patients with idiopathic pulmonary fibrosis,,60 mg once daily,"endocrine disorders SOC, grade 4",0
patients with idiopathic pulmonary fibrosis,,dose not given,"free thyroxine decreased, grade 4, all arms",0
patients with idiopathic pulmonary fibrosis,,dose not given,"allergic conjunctivitis, grade 5, all arms",0
patients with idiopathic pulmonary fibrosis,,dose not given,"allergic conjunctivitis, grade 4, all arms",0
idiopathic pulmonary fibrosis patients,oral,60 mg once daily,"ESR increased, grade 1",1

# Set 2 — host: mouse; matrix: microsomes or S9; tested at: 2 µM; time: 0.5 h
SMILES,remaining compound [%]
c1ccc2c(c1)CC[C@H](Cn1ccnc1-c1cc3n(n1)CCCNC3)O2,23.6
COc1cc(=O)[nH]cc1C(=O)N1CCN(c2cncc(F)c2)CC1,73.1
O=C(c1ccc2cccnn12)N1C[C@@H](Cc2ccccc2)[C@H](O)C1,2.78
CC(C)(C)C1CCc2c(sc(NC(=O)Cc3ccccc3)c2C#N)C1 (centres unmarked),45.5
Cc1nc2ccc(N3CCN(c4ncc(C)s4)CC3)nn2n1,> 100
CCc1nc2cc(-c3ccccn3)c(CO)nc2n1Cc1ccc2oc(-c3ccccc3-c3nnn[nH]3)c(Br)c2c1,26.6
CC1(C(=O)NC2CCCCCC2)Cn2c(cc3occc32)C(=O)N1Cc1ccco1 (centres unmarked),0.161
Cc1nc(CC(C)C)cc(C(=O)N2C[C@@H](N(C)C)[C@H](C(C)C)C2)n1,1.29
CS(=O)(=O)C1(C(=O)NC2CCCS(=O)(=O)C2)CCCC1 (centres unmarked),89
CC(C)NS(=O)(=O)c1ccc2c(c1)nc(-c1ccncc1)n2C(C)C,0.226
Cc1nc(C)c(C(=O)N2C3CCC2Cn2c(nnc2-c2ccccc2)C3)s1 (centres unmarked),> 100
O=C(Nc1cccc2ccccc12)C1c2ccccc2Oc2ccccc21,59.1
CC(C)Cn1c(NCCN(C)C)nc2c1c(=O)[nH]c(=O)n2C,94.6
O=C(c1ccc(Cn2ccn3nc4c(c3c2=O)CCCC4)cc1)N1CCN(c2ncccn2)CC1,0.309

# Set 3 — method: competition with immobilised ligand; tested at: 1 µM
# SMILES: CNC(=O)Nc1ccc2c(c1)CC[C@@]21OC(=O)N(CC(=O)N(Cc2ccc(F)cc2)[C@@H](C)C(F)(F)F)C1=O
target,effect on,remaining binding [%]
"PRKAA1 (Homo sapiens, UniProt Q13131)",cell-free assay,100
"Ribosomal protein S6 kinase alpha-6, N-terminal kinase domain (RPS6KA6, Homo sapiens, UniProt Q9UK32)",cell-free assay,81
"DCLK1 (Homo sapiens, UniProt O15075)",cell-free assay,96
"MAP3K12 (Homo sapiens, UniProt Q12852)",cell-free assay,100
"MAP3K20 (Homo sapiens, UniProt Q9NYL2)",cell-free assay,82
"EIF2AK1 (Homo sapiens, UniProt Q9BQI3)",cell-free assay,80
"WNK1 (Homo sapiens, UniProt Q9H4A3)",cell-free assay,93
"PIK3CA (Homo sapiens, UniProt P42336, M1043I)",cell-free assay,100
"EPHA4 (Homo sapiens, UniProt P54764)",cell-free assay,89
"Tyrosine-protein kinase ABL1, phosphorylated (ABL1, Homo sapiens, UniProt P00519, E255K)",cell-free assay,75
"ACVRL1 (Homo sapiens, UniProt P37023)",binding,72
"ULK2 (Homo sapiens, UniProt Q8IYT8)",cell-free assay,82
"PIP4K2C (Homo sapiens, UniProt Q8TBX8)",cell-free assay,93
"FRK (Homo sapiens, UniProt P42685)",cell-free assay,94
"MAPK1 (Homo sapiens, UniProt P28482)",cell-free assay,91
"eIF-2-alpha kinase GCN2, C-terminal kinase domain (EIF2AK4, Homo sapiens, UniProt Q9P2K8, S808G)",cell-free assay,92

# Set 4 — Structure (SMILES): O=C1NC(=O)/C(=C/c2ccc3nccnc3c2)S1; effect on: enzyme activity; mode: inhibitor; tested at: 0.5 µM; baseline: control
target,remaining activity [%]
"DAPK2 (Homo sapiens, UniProt Q9UIK4)",139
"GRK3 (Homo sapiens, UniProt P35626)",111
"MAP3K3 (Homo sapiens, UniProt Q99759)",100
"Cyclin-dependent kinase 5, with p25 (CDK5, Homo sapiens, UniProt Q00535)",83.2
"OXSR1 (Homo sapiens, UniProt O95747)",98.4
"TGFBR1 (Homo sapiens, UniProt P36897)",98.5
"STK10 (Homo sapiens, UniProt O94804)",90.5
"STK39 (Homo sapiens, UniProt Q9UEW8)",104
"MAPK9 (Homo sapiens, UniProt P45984)",96
"IKBKB (Homo sapiens, UniProt O14920)",96.1
"Cyclin-dependent kinase 4, with cyclin D1 (CDK4, Homo sapiens, UniProt P11802)",94.4
"STK11 (Homo sapiens, UniProt Q15831)",96.6
"CAMK2D (Homo sapiens, UniProt Q13557)",93.7
"TGFBR2 (Homo sapiens, UniProt P37173)",108
"PRKACA (Homo sapiens, UniProt P17612)",97.2
"DAPK1 (Homo sapiens, UniProt P53355)",105
"CHEK2 (Homo sapiens, UniProt O96017)",90.3
"NEK2 (Homo sapiens, UniProt P51955)",92.2
"CAMKK2 (Homo sapiens, UniProt Q96RR4)",72.9
"PRKCA (Homo sapiens, UniProt P17252)",102
"Tyrosine-protein kinase Lyn, isoform B (LYN, Homo sapiens, UniProt P07948)",99.2
"IKBKE (Homo sapiens, UniProt Q14164)",99.5
"cGMP-dependent protein kinase 1, isoform beta (PRKG1, Homo sapiens, UniProt Q13976)",113
"Protein kinase C beta type, isoform beta-I (PRKCB, Homo sapiens, UniProt P05771)",96.9

# A few entries again (set 2):
SMILES,remaining compound [%]
CS(=O)(=O)C1(C(=O)NC2CCCS(=O)(=O)C2)CCCC1 (centres unmarked),89
CC(C)NS(=O)(=O)c1ccc2c(c1)nc(-c1ccncc1)n2C(C)C,0.226
COc1cc(=O)[nH]cc1C(=O)N1CCN(c2cncc(F)c2)CC1,73.1
Cc1nc2ccc(N3CCN(c4ncc(C)s4)CC3)nn2n1,> 100
CC(C)Cn1c(NCCN(C)C)nc2c1c(=O)[nH]c(=O)n2C,94.6
O=C(c1ccc2cccnn12)N1C[C@@H](Cc2ccccc2)[C@H](O)C1,2.78
c1ccc2c(c1)CC[C@H](Cn1ccnc1-c1cc3n(n1)CCCNC3)O2,23.6
